Published values of several laboratories.
Parts stem from different laboratories: compare values within a part only.

Study 1
Target: Histone acetyltransferase KAT6A, both winged helices, GST fusion (KAT6A, Homo sapiens, UniProt Q92794, residues 1-181)
Method: protein binding microarray
Molecule type: double-stranded DNA, one strand shown
Medium: in vitro
Tested at: not given
Setting: 8-mer, flanks averaged, mean of 2 arrays, mostly near background
Reference: not given
Reading: higher = stronger binding
Construct (chain): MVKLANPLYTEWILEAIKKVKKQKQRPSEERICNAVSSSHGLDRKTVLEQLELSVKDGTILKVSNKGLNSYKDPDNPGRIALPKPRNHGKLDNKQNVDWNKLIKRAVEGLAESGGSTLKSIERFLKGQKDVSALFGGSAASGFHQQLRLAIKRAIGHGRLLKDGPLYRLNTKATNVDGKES
`ATCGGGTC` gave an E-score of 0.15.
For `TAATTAGA`, the E-score was -0.135.
`CGCGATTC` gave an E-score of 0.278.
With `ACCGGGTG` the E-score was 0.206.
The E-score of `CTTCCGAA` is reported as 0.101.
`GGGTCGAC` has an E-score of -0.0117.
With `TCGTCGAA` the E-score was -0.0759.

Study 2
Target: RNA binding protein fox-1 homolog 2, RRM domain, GST-SBP tag (RBFOX2, Homo sapiens, UniProt O43251-10, residues 100-194)
Method: RNA Bind-n-Seq
Molecule type: RNA
Medium: in vitro
Tested at: 365 nM
Setting: natural RNA segment, single round, ends assumed
Reference: no-protein control
Reading: higher = stronger binding
All sequences stand within: GGGAGUUCUACAGUCCGACGAUC … UGGAAUUCUCGGGUGCCAA
Residues (chain): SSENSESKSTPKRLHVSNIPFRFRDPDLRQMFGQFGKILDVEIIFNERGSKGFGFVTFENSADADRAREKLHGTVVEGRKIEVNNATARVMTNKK
`AGAGGCCAGCCUCAAGGUGGCCAUGUCGAGGUGAGGCCAGCUUGGGCUAUCCGAGACGCUGUCAGCCAUUUUGCUCUGUUCCUGGUAGUGUGCAGACCUCGGGGUUGAGA`: “RBNS enrichment (R)” 0.566.
Under “RBNS enrichment (R)”, `UGCUUAUAAAGCUUAAUUCUGAUAUUAUCCUCUUACUACCUACAGUAUGUUUUGCAAAAAUCAGUCCACUUAGCAAACUAAUCUUUGUAAAGCAGUCAGUUUCAGAAGAU` is recorded as 0.424.
`GCAGGACAUCGUUCUCCCUGGCUGCAUCCACUCAGUGCUGGGAGUAGUCCCCAGUUAUUAUGAAACCACCAAUAACCCACUGACCACAGUGAGAACCACUGAUUUUUUCC`: “RBNS enrichment (R)” 0.861.
`GUGUCGUGGUUUAGCUCCUCGGUGGUGAGGCGUGCUUCUCCCUCCUGGUGGAGCCAGGCAGCAGGGCCUUCCUGACCAACAGCCAUGUCUGACCUUCCCACUGAGAAACA`: “RBNS enrichment (R)” 0.244.
Under “RBNS enrichment (R)”, `CCACUAAGCUGUGUCUUGUUCAUGCCCCCUGCUCAGUGAAAGGUGAGUCCCGAGACCAGUUGGGUACCUCUCUAUGCGAACCAGAGACAUUUCUGGAUCCAGGCCAGGUG` is recorded as 1.03.
`GUUUGGGAGACCCAUGGAAGAAAACCUUCGCCAUCUCCAUUGUUUUACCCCCAGCUCAAGAUGGACAGGGUUCUUCUGGUCAUCUCCCUUCCACCUCUUCCACCCUCAUG`: “RBNS enrichment (R)” 0.267.

Study 3
Target: Sal-like protein 4, full length isoform A (SALL4, Homo sapiens, UniProt Q9UJQ4, residues 1-1053)
Sequence of UniProt Q9UJQ4 (whole entry, looked up): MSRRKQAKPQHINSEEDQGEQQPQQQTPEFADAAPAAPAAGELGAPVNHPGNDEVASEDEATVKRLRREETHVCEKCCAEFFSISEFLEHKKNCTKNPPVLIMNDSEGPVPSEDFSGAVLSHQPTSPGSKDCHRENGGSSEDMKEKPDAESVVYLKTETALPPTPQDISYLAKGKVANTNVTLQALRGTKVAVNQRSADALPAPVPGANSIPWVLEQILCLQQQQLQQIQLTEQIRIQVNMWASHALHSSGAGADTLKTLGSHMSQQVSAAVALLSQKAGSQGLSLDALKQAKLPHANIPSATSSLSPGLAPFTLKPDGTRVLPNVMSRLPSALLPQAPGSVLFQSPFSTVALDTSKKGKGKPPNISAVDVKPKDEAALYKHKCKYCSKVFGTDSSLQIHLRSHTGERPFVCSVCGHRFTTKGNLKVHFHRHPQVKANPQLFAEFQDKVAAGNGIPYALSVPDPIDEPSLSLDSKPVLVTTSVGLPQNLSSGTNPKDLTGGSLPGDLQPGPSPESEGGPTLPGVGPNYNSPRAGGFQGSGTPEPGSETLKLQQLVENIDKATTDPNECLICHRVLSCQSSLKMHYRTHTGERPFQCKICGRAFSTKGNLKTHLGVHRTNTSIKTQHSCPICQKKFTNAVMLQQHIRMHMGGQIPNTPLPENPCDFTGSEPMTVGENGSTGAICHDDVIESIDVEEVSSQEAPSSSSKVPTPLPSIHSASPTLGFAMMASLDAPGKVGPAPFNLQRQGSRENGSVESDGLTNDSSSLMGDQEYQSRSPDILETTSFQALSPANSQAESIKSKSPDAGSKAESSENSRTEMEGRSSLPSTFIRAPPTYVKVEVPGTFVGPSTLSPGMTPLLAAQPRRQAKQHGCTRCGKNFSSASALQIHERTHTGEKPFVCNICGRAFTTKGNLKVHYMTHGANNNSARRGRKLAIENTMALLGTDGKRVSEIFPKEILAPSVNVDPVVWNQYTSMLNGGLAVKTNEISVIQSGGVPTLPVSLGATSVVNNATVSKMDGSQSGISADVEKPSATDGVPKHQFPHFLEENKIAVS
Method: universal PBM
Molecule type: double-stranded DNA, one strand shown
Medium: in vitro
Tested at: 600 nM
Setting: 8-mer, flanks averaged, mean of replicates
Reading: higher = stronger binding
With `CAGTAGTA` the E-score was 0.0556.
With `AGGGTCCA` the E-score was -0.334.
With `CCACAGAA` the E-score was 0.0928.
With `AATACCGA` the E-score was 0.151.
`CTATCAAA` has an E-score of 0.131.
`CCACGTGC` has an E-score of -0.257.

Other studies, line by line
For `PhoQ, residues 284 288 289 292 302 303 TNASYF`, the fold induction was 3.94 (PhoP, residues 12 14 15 18 19 AWHSL (Escherichia coli, UniProt P23836); Sort-seq, measured: YFP reporter; E. coli; PhoQ-PhoP variant library, together with: 10 µM Mg2+; reference: high Mg2+ state, higher = stronger signaling).

Repeated from above (study 1):
With `TCGTCGAA` the E-score was -0.0759.
